Experimental data pooled from the literature.
Each line is one published result; not all experiments were run side by side.
HDAC6: Protein deacetylase HDAC6 (HDAC6, Homo sapiens, UniProt Q9UBN7)
Sequence of UniProt Q9UBN7 (whole entry, looked up): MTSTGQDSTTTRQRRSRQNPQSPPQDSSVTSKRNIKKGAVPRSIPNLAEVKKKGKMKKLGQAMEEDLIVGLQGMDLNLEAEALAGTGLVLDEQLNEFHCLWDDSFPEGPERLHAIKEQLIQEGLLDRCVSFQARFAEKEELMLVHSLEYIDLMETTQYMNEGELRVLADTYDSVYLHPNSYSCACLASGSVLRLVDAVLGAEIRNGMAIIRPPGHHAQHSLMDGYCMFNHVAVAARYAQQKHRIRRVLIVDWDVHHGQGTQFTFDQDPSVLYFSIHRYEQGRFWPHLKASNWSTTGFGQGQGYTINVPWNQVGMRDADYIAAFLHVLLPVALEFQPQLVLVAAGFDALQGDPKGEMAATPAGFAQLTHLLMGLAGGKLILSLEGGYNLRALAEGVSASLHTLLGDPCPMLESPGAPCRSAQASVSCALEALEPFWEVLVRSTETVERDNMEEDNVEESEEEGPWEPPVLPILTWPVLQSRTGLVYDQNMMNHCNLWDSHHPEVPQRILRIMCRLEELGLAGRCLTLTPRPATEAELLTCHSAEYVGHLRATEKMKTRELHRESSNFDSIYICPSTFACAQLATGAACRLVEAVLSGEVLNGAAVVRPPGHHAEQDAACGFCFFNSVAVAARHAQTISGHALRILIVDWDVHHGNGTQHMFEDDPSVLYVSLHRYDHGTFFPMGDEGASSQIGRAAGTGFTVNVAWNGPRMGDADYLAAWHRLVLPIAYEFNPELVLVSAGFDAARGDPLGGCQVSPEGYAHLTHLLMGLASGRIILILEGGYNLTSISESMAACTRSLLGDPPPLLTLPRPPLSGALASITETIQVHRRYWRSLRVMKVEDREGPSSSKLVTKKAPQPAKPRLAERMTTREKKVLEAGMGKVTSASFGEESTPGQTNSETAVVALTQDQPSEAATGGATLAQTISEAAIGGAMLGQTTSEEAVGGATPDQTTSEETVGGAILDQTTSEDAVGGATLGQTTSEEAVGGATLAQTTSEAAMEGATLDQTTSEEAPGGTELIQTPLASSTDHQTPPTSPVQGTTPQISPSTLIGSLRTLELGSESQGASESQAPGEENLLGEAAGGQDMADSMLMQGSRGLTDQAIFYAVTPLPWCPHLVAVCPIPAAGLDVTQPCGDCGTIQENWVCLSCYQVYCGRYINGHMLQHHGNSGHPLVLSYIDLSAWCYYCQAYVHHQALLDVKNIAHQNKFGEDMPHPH
USP51: Ubiquitin carboxyl-terminal hydrolase 51 (USP51, Homo sapiens, UniProt Q70EK9)
Sequence of UniProt Q70EK9 (whole entry, looked up): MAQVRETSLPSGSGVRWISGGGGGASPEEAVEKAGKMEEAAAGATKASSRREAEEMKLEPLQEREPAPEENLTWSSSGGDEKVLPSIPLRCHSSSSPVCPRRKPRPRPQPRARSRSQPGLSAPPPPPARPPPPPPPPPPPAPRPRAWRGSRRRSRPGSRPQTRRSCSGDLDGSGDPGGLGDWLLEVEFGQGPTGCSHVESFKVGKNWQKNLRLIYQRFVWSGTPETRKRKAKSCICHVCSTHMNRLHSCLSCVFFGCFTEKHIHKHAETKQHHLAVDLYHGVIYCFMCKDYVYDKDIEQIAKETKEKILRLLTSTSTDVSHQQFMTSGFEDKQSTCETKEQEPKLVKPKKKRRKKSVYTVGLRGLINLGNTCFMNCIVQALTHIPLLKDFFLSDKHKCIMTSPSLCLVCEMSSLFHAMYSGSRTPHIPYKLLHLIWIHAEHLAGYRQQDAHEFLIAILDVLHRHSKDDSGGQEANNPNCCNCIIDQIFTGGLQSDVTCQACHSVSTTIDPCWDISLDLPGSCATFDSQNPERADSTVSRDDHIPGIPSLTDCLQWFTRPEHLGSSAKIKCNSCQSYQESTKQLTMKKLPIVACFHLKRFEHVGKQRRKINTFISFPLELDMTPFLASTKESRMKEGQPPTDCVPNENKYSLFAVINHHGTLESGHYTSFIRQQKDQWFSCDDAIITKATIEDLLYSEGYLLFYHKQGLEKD
SLC6A4: Sodium-dependent serotonin transporter (SLC6A4, Homo sapiens, UniProt P31645)
SIRT6: NAD-dependent protein deacylase sirtuin-6 (SIRT6, Homo sapiens, UniProt Q8N6T7)
Sequence of UniProt Q8N6T7 (whole entry, looked up): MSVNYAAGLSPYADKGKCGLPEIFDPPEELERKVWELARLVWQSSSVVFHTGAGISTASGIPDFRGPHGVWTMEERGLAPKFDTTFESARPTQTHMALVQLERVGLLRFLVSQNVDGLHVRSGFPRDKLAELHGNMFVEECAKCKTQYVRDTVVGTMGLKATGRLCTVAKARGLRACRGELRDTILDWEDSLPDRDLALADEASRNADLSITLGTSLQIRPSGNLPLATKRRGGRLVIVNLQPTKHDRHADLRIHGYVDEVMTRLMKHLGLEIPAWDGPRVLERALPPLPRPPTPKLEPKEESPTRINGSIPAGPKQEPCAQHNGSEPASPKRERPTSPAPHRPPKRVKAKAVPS
GSK3B: Glycogen synthase kinase-3 beta (GSK3B, Homo sapiens, UniProt P49841)
Sequence of UniProt P49841 (whole entry, looked up): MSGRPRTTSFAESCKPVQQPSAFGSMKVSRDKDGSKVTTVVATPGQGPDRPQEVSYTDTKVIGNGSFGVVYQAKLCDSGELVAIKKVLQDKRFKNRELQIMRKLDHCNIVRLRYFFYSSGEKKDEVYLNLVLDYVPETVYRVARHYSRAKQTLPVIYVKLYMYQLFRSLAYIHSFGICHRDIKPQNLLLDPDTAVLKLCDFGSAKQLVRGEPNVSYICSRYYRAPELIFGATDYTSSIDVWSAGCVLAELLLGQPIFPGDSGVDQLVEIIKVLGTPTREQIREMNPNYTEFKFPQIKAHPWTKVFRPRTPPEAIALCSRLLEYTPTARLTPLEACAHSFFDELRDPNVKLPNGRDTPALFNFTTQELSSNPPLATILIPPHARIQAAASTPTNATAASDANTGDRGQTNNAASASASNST
PTGS2: Prostaglandin G/H synthase 2 (PTGS2, Homo sapiens, UniProt P35354)
Sequence of UniProt P35354 (whole entry, looked up): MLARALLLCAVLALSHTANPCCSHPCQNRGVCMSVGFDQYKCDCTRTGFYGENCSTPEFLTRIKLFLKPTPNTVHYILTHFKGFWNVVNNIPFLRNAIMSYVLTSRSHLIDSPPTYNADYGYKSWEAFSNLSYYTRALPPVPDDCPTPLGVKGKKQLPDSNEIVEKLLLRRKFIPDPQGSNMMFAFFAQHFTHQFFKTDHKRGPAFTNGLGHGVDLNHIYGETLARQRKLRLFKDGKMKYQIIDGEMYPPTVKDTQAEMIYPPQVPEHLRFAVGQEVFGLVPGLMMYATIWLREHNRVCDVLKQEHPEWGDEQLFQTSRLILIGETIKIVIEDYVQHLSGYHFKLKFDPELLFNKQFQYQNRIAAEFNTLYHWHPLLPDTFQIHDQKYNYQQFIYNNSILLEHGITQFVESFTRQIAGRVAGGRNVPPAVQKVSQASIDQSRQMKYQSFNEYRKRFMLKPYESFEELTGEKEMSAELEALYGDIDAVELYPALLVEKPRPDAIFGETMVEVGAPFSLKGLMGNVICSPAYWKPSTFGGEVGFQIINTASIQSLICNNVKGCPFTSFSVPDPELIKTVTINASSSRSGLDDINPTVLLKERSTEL
PDE10A: cAMP and cAMP-inhibited cGMP 3',5'-cyclic phosphodiesterase 10A (PDE10A, Homo sapiens, UniProt Q9Y233)
Sequence of UniProt Q9Y233 (whole entry, looked up): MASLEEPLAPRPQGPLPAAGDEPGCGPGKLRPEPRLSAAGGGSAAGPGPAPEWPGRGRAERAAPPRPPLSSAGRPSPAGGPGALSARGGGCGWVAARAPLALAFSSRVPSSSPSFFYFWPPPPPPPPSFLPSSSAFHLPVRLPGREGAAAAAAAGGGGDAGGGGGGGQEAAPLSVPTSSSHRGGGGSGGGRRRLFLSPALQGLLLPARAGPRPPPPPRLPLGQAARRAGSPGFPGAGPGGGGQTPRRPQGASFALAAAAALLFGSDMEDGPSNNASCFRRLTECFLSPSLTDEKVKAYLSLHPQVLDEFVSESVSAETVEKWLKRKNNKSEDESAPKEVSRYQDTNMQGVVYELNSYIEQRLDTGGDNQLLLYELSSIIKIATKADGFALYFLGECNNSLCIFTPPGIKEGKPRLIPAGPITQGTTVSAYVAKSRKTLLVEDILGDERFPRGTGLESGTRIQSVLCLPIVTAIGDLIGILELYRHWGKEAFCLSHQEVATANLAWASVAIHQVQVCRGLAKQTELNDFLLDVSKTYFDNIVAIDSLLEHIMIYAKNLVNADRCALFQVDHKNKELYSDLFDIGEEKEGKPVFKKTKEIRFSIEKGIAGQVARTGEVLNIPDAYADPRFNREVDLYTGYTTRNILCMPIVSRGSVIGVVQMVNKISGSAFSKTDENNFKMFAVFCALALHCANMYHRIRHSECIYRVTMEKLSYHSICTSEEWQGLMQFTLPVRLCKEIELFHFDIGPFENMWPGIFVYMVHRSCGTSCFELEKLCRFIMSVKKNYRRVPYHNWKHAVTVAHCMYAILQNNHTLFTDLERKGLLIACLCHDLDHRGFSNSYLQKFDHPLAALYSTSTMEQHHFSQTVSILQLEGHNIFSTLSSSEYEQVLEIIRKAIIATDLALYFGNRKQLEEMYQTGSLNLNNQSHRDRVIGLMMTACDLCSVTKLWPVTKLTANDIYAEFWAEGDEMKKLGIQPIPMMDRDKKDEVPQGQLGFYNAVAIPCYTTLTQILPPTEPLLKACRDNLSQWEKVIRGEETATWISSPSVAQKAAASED
KCNA1: Potassium voltage-gated channel subfamily A member 1 (KCNA1, Homo sapiens, UniProt Q09470)
Sequence of UniProt Q09470 (whole entry, looked up): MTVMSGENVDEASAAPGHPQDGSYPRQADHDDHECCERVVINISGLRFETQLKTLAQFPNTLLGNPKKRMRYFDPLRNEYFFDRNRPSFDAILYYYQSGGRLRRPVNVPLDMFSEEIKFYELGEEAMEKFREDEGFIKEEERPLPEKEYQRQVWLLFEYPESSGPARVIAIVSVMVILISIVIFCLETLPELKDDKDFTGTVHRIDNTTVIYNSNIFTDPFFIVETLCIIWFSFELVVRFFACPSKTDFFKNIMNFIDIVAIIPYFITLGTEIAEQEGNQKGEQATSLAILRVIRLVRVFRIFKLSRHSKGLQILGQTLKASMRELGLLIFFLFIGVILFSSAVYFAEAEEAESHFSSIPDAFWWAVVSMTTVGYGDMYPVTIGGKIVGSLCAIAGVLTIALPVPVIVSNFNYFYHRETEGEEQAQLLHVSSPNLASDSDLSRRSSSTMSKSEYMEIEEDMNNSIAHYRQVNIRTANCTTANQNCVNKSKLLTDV
Sequence of UniProt P00374 (whole entry, looked up): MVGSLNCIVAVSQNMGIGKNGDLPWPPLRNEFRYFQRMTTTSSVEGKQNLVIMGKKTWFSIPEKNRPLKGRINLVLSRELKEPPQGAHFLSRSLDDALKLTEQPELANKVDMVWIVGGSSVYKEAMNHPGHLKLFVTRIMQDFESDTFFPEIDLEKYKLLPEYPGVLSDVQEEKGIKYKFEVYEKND

Structure (SMILES)	target	test	test system	conditions	quantity	result
C1=C/COCc2cc(ccc2OCCN2CCCC2)Nc2nccc(n2)-c2cccc(c2)COC/1	Tyrosine-protein kinase ABL1 (ABL1, Homo sapiens, UniProt P00519, Y253F)	binding		0.1 µM	remaining binding	23%
Cc1c(OS(=O)(=O)Oc2cccc(C(C)C)c2)cccc1C(=O)NO	HDAC6	enzyme activity, inhibitor, fluorescence		10 µM	inhibition	23%
O=C(O)[C@H]1O[C@@H](Oc2cc3oc(-c4ccccc4)cc(=O)c3c(O)c2O)[C@H](O)[C@@H](O)[C@@H]1O	USP51	enzyme activity, inhibitor		5 µM	inhibition	13%
Nc1nc2[nH]c(C3CC3)c(Cc3ccc(Cl)c(Cl)c3)c(=O)n2n1	C-C chemokine receptor type 5 (CCR5, Homo sapiens, UniProt P51681)	β-arrestin recruitment, antagonist		1 µM	inhibition	93%
CCOC(=O)C12CC1C(n1ccc3c(NCCCc4ccccc4)nc(C#Cc4ccc(Cl)s4)nc31)C(O)C2O (stereo not drawn)	SLC6A4	ligand displacement, radioligand		10 µM	inhibition	-15%
NC(=O)c1ccc(C(=O)NOCc2ccc(Sc3ccccc3)cc2)cc1	SIRT6	enzyme activity, inhibitor, fluorescence		100 µM	inhibition	93.6%
O=c1c(O[C@@H]2O[C@H](CO)[C@@H](O)[C@H](O)[C@H]2O)c(-c2ccc(O)c(O)c2)oc2cc(O)cc(O)c12	USP51	enzyme activity, inhibitor		5 µM	inhibition	20%
CNc1ncc2c(/C=C/C(=O)N3CCC(OC)CC3)nn(Cc3cccc(C(F)(F)F)c3)c2n1	GSK3B	enzyme activity, inhibitor, radiometric		1 µM	remaining activity	100%
Cc1cc(C(C)(C)C)ccc1OS(=O)(=O)Oc1cccc(C(=O)NO)c1C	HDAC6	enzyme activity, inhibitor, fluorescence		10 µM	inhibition	5%
C[C@]12C[C@H](O)[C@H]3[C@@H](CCC4=CC(=O)CC[C@@]43C)[C@@H]1CC[C@@H]2C(=O)CO	USP51	enzyme activity, inhibitor		5 µM	inhibition	26%
Cc1cc(O)c(-c2ccc([C@@H](C)CN(C)C)cc2)c2c1[nH]c(=O)c1sccc12	Cyclin-dependent kinase 10 (CDK10, Homo sapiens, UniProt Q15131)	enzyme activity, inhibitor		0.1 µM	inhibition	11%
COC(=O)c1ccc(O)cc1	PTGS2	enzyme activity, inhibitor		7.81 µg/mL	inhibition	18.6%
O=C(/C=C/c1cccc(OS(=O)(=O)Oc2ccc(C(F)(F)F)cc2)c1)NO	Histone deacetylase 5 (HDAC5, Homo sapiens, UniProt Q9UQL6)	enzyme activity, inhibitor, fluorescence		10 µM	inhibition	22%
CC(C)OCCn1c(=S)[nH]c(=O)c2[nH]ccc21	Myeloperoxidase (MPO, Homo sapiens, UniProt P05164)	enzyme activity, inhibitor, fluorescence		61.7 nM	inhibition	57.8%
C#Cc1cc(-c2cc(Nc3nc(N[C@@H](C)c4ccc(F)cn4)ncc3Cl)n[nH]2)ccc1C=O	Phosphorylase b kinase gamma catalytic chain, liver/testis isoform (PHKG2, Homo sapiens, UniProt P15735)	enzyme activity, inhibitor		0.2 µM	inhibition	32.2%
COc1ccc(Cc2nccc3cc(OC)c(OC)cc23)cc1OC	PDE10A	enzyme activity, inhibitor, FP		0.1 µM	inhibition	47%
CCCN1C[C@H](CSC)C[C@@H]2c3cccc4[nH]cc(c34)C[C@H]21	KCNA1	ion current, inhibitor, patch clamp		3 µM	inhibition	12%
Cc1ncsc1-c1ccc(CNC(=O)[C@@H]2C[C@@H](O)CN2C(=O)[C@@H](NC(=O)CCCCCCCCNC(=O)CN2CCN(C(=O)c3ccc(Nc4nc(C5CC5)cn5c(-c6cn[nH]c6)cnc45)c(F)c3)CC2)C(C)(C)C)cc1	Serine/threonine-protein kinase RIO2 (RIOK2, Homo sapiens, UniProt Q9BVS4)	cell-free assay, competition with immobilised ligand		1 µM	inhibition	> 65%
O=c1c(O)c(-c2ccc(O)c(O)c2)oc2cc(O)cc(O)c12	USP51	enzyme activity, inhibitor		5 µM	inhibition	97%
Cc1cc([C@@H](C)Nc2ccccc2C(=O)O)c2nc(N3CCC(F)(F)CC3)c(C#N)c(=O)n2c1	Inhibitor of nuclear factor kappa-B kinase subunit beta (IKBKB, Homo sapiens, UniProt O14920)	binding, competition with immobilised ligand		10 µM	remaining binding	90%
CNc1cc(Oc2cc(C(=O)Nc3cc(N4CCN(C)CC4)cc(C(F)(F)F)c3)ccc2C)ncn1	STE20-like serine/threonine-protein kinase (SLK, Homo sapiens, UniProt Q9H2G2)	target engagement in cells, inhibitor, chemoproteomics	Huh-7	1 µM	inhibition	-41.8%
O=c1c(-c2ccc(O)cc2)coc2cc(O)cc(O)c12	USP51	enzyme activity, inhibitor		5 µM	inhibition	43%
CCc1nn(C)c2nc(-c3ccc(C(=O)O)cc3)nc(NCc3ccc(F)cc3)c12	cGMP-inhibited 3',5'-cyclic phosphodiesterase 3A (PDE3A, Homo sapiens, UniProt Q14432)	enzyme activity, inhibitor, radiometric		10 µM	inhibition	27.4%
O=c1cc(-c2ccc(O)c(O)c2)oc2cc(O)cc(O)c12	PTGS2	enzyme activity, inhibitor		15.63 µg/mL	inhibition	100%

Structure (SMILES)	target	test	test system	conditions	quantity	result
C[C@H]1[C@H](C)CC[C@]2(C(=O)O)CC[C@]3(C)C(=CC[C@@H]4[C@@]5(C)CC[C@H](O)C(C)(C)[C@@H]5CC[C@]43C)[C@H]12	USP51	enzyme activity, inhibitor		5 µM	inhibition	19%
COc1ccc(Cc2ncnc3cc(OC)c(OC)cc23)cc1	PDE10A	enzyme activity, inhibitor, FP		0.1 µM	inhibition	33%
COc1cc([C@H]2OC[C@H]3[C@@H]2CO[C@@H]3c2cc(OC)c(O)c(OC)c2)cc(OC)c1O	PTGS2	enzyme activity, inhibitor		0.49 µg/mL	inhibition	32.2%
COc1cc(-c2cncc3c2CN(C)Cc2cc(N4CCNCC4)ccc2-3)cc(OC)c1OC	Ephrin type-A receptor 8 (EPHA8, Homo sapiens, UniProt P29322)	enzyme activity, inhibitor		1 µM	remaining activity	96%
C=CC(=O)N1CCC(COCC(=O)N2CCN(c3nc(-c4cnc(N)nc4C(F)F)nc(N4CCOC[C@@H]4C)n3)CC2)CC1	Tyrosine-protein kinase Fes/Fps (FES, Homo sapiens, UniProt P07332)	binding, competition with immobilised ligand		1 µM	remaining binding	100%
O=C(NO)c1cncc(OS(=O)(=O)Oc2ccc3ccccc3c2)c1	Histone deacetylase 9 (HDAC9, Homo sapiens, UniProt Q9UKV0)	enzyme activity, inhibitor, fluorescence		10 µM	inhibition	35%
CN1CC(Oc2cnc(C#N)cc2-c2ccn3nc(NC(=O)C4CC4)cc3c2)C1	Serine/threonine-protein kinase pim-3 (PIM3, Homo sapiens, UniProt Q86V86)	enzyme activity, inhibitor		1 µM	inhibition	-5%
CCCCC(=O)Nc1ccc(-c2ccc3ncn(CCC)c(=O)c3c2)cn1	Tyrosine-protein kinase ABL1, phosphorylated (ABL1, Homo sapiens, UniProt P00519, H396P)	binding, competition with immobilised ligand		0.5 µM	remaining binding	91%
NC/C(=C\F)COc1cccc(Cn2c(=S)[nH]c(=O)c3[nH]cnc32)c1	Endothelin-1 receptor (EDNRA, Homo sapiens, UniProt P25101)	ligand displacement, radioligand		10 µM	inhibition	< 50%
CC[C@H](C)[C@H](NC(=O)[C@H](CCC(N)=O)NC(=O)[C@@H](NC(=O)[C@H](CCSC)NC(=O)[C@H](CCCCN)NC(=O)[C@H](CO)NC(=O)[C@@H](NC(=O)[C@H](CCSC)NC(=O)[C@H](CC(C)C)NC(=O)[C@H](CC(N)=O)NC(=O)[C@@H](NC(=O)[C@@H](NC(=O)[C@H](CO)NC(=O)[C@H](CC(C)C)NC(=O)[C@H](C)NC(=O)[C@H](CCCNC(=N)N)NC(=O)[C@H](CCC(=O)O)NC(=O)[C@H](Cc1ccc(O)cc1)NC(=O)[C@H](Cc1ccccc1)NC(=O)[C@H](C)NC(=O)[C@H](CC(N)=O)NC(=O)[C@@H](N)CCCCN)[C@@H](C)CC)[C@@H](C)CC)[C@@H](C)O)C(C)C)C(=O)N[C@@H](CC(N)=O)C(=O)N[C@H](C(=O)O)C(C)C	GSK3B	enzyme activity, inhibitor, radiometric		50 µM	inhibition	-6%
O=C(O)c1ccc(O)cc1	PTGS2	enzyme activity, inhibitor		31.25 µg/mL	inhibition	100%
O=C(NO)c1cccc(OS(=O)(=O)Oc2ccc(Oc3ccccc3)cc2)c1	HDAC6	enzyme activity, inhibitor, fluorescence		10 µM	inhibition	15%
Cn1c(=O)c2[nH]cnc2n(C)c1=O	KCNA1	ion current, inhibitor, patch clamp		30 µM	inhibition	10.2%
O=c1c(-c2ccc(O)cc2)coc2c([C@@H]3O[C@H](CO)[C@@H](O)[C@H](O)[C@H]3O)c(O)ccc12	USP51	enzyme activity, inhibitor		5 µM	inhibition	0%
CCOC(=O)[C@@]12C[C@@H]1[C@@H](n1cnc3c(NCCCCCc4ccccc4)nc(C#Cc4ccccc4)nc31)[C@H](O)[C@@H]2O	SLC6A4	ligand displacement, radioligand		10 µM	inhibition	17%
Cc1cc(C(C)(C)C)ccc1OS(=O)(=O)Oc1cc(F)cc(C(=O)NO)c1	Histone deacetylase 1 (HDAC1, Homo sapiens, UniProt Q13547)	enzyme activity, inhibitor, fluorescence		5 µM	inhibition	7%
C[N+](C)(C)CC(=O)O	USP51	enzyme activity, inhibitor		5 µM	inhibition	29%
NC(=O)c1ccc(C(=O)NOCc2ccc(Nc3ccccc3)cc2)cc1	SIRT6	enzyme activity, inhibitor, fluorescence		100 µM	inhibition	79.2%
S=C(NCCc1ccccc1)NN=Cc1ccc(N2CCCCC2)cc1	Dihydrofolate reductase (DHFR, Homo sapiens, UniProt P00374)	enzyme activity, inhibitor		500 µM	inhibition	86.4%
Cc1cc(OS(=O)(=O)Oc2cccc(C(C)(C)C)c2)cc(C(=O)NO)c1	Histone deacetylase 8 (HDAC8, Homo sapiens, UniProt Q9BY41)	enzyme activity, inhibitor, fluorescence		10 µM	inhibition	41%
COc1ccc(-c2cc(=O)c3c(O)cc(O[C@@H]4O[C@H](CO)[C@@H](O)[C@H](O)[C@H]4O)cc3o2)cc1O	PTGS2	enzyme activity, inhibitor		1.95 µg/mL	inhibition	100%
COc1ccc2nccc(Cc3cccc(-c4cnn(C)c4)c3)c2c1	PDE10A	enzyme activity, inhibitor, FP		0.1 µM	inhibition	8%
COc1cc(-c2cc(=O)c3c(O)cc(O)cc3o2)ccc1O	PTGS2	enzyme activity, inhibitor		15.63 µg/mL	inhibition	84.2%
CC[C@H](C)[C@H](NC(=O)[C@H](CCC(N)=O)NC(=O)[C@H](CC(C)C)NC(=O)[C@H](CCSC)NC(=O)[C@H](CCCCN)NC(=O)[C@H](CO)NC(=O)[C@H](CO)NC(=O)[C@H](CCSC)NC(=O)[C@H](CC(C)C)NC(=O)[C@H](CC(N)=O)NC(=O)[C@@H](NC(=O)[C@@H](NC(=O)[C@H](CO)NC(=O)[C@H](CC(C)C)NC(=O)[C@H](CS)NC(=O)[C@H](CCCNC(=N)N)NC(=O)[C@H](CC(=O)O)NC(=O)[C@H](Cc1c[nH]c2ccccc12)NC(=O)[C@H](Cc1ccccc1)NC(=O)[C@H](C)NC(=O)[C@H](CCC(=O)O)NC(=O)[C@@H](N)CCCCN)C(C)C)[C@@H](C)CC)C(=O)N[C@@H](CC(N)=O)C(=O)N[C@@H](C)C(=O)O	GSK3B	enzyme activity, inhibitor, radiometric		250 µM	inhibition	-19%

Repeated from above:
Structure (SMILES)	target	test	test system	conditions	quantity	result
S=C(NCCc1ccccc1)NN=Cc1ccc(N2CCCCC2)cc1	Dihydrofolate reductase (DHFR, Homo sapiens, UniProt P00374)	enzyme activity, inhibitor		500 µM	inhibition	86.4%
Nc1nc2[nH]c(C3CC3)c(Cc3ccc(Cl)c(Cl)c3)c(=O)n2n1	C-C chemokine receptor type 5 (CCR5, Homo sapiens, UniProt P51681)	β-arrestin recruitment, antagonist		1 µM	inhibition	93%
O=c1c(-c2ccc(O)cc2)coc2cc(O)cc(O)c12	USP51	enzyme activity, inhibitor		5 µM	inhibition	43%
